Assay results pooled from the literature.
Each numbered part is a random draw from the data of one study; scales do not carry over between parts. Changes are numbered by the printed parent chain.

Series 1 — cell line: mouse MPNST tumor cells; method: high-content nuclear imaging; refers to: cell number; tested at: 10 µM; time: 12 h; setting: mean of 2 replicates; relative to: plate mean; direction: higher = more cells
`CCCCNC(=O)NS(=O)(=O)c1ccc(C)cc1` has a nuclei count of -0.0287 z-score.
The nuclei count of `CN1C(=O)N(c2cc(Cl)cc(Cl)c2)C(=O)[C@@]1(C)Cc1ccc(Br)cc1` is reported as -0.5 z-score.
`CS(=O)(=O)c1ccc(-c2cc(Br)sc2-c2ccc(F)cc2)cc1` gave a nuclei count of 1.95 z-score.

Series 2 — method: protein-binding microarray; form: double-stranded DNA, one strand shown; medium: in vitro; tested at: 0.8 µM; setting: whole 60-bp probe, no competitor; direction: higher = stronger binding; all sequences stand within: … GTCTTGATTCGCTTGACGCTGCTG
Target: Centromere-binding protein 1, full length, N-terminal tag (CBF1, Saccharomyces cerevisiae, UniProt P17106, residues 1-351)
Chain of UniProt P17106 (whole entry, looked up): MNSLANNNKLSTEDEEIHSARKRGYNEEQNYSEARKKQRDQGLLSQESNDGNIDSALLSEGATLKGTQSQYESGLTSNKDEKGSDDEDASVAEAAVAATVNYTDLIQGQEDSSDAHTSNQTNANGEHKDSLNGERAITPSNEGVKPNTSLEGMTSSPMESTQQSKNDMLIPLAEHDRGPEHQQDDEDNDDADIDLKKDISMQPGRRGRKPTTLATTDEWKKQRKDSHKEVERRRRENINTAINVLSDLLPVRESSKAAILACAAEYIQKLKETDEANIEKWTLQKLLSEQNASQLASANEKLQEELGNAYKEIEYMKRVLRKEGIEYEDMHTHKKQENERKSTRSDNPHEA
With `GAATTAATTTTTGTTCACGAGTAAGTACTTCAGTAG` the fluorescence intensity was 799 a.u.
`CTATAGAATCCCCATCACGTACGAGTTGAAGAATTC` gave a fluorescence intensity of 568 a.u.
With `CTAGGTAGTAATGGTGATGAAATGTTGTTACTTTTC` the fluorescence intensity was 478 a.u.
The fluorescence intensity of `CTATGCCAGAAACGTGACGTGAAATACCTACTATTC` is reported as 3940 a.u.
For `CTATCCAGTCTCATGCACATGTCAAATATGTGGTTC`, the fluorescence intensity was 920 a.u.
With `GAAAATCCTTTTGATGTTACCCCGCCTGTGGGCTAG` the fluorescence intensity was 479 a.u.
With `GAACAGAGAAACGATCATGATGGGAAAGCGGGGTAG` the fluorescence intensity was 512 a.u.
`GAACGTGATAACAATCACACTGTACGGCTGATCTAG` has a fluorescence intensity of 650 a.u.

Series 3 — target: MAFF, bZIP domain (human); method: DHFR protein complementation; medium: yeast; relative to: wild-type JUN-FOS pair; direction: higher = stronger binding
Setting: single substitutions, most at no-binding floor
Starting sequence: JUN, bZIP domain (human); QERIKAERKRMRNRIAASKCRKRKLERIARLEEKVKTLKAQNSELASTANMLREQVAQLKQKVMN; partner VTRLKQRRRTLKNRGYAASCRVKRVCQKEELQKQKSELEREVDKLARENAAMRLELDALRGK
The binding fitness of `L38G` is reported as -1.5 natural log.
`A49C` gave a binding fitness of -1.19 natural log.
`E33H` gave a binding fitness of -1.4 natural log.
For `L31P`, the binding fitness was -1.49 natural log.
For `A40G`, the binding fitness was -1.35 natural log.
`R30S` has a binding fitness of -1.47 natural log.
`I28R` has a binding fitness of -1.38 natural log.
For `E32R`, the binding fitness was -1.35 natural log.

Mixed results — tested at: 1 µM
For `COc1cc(C(=O)N2CCC(N3CCN(C)CC3)CC2)ccc1Nc1ncc2c(n1)N(C)c1ccccc1C(=O)N2C`, the inhibition was 8.1% (human PBMC; probe labeling, inhibitor, KiNativ profiling, refers to: VDTHALYAMkTLR; cell lysate; LYS1 site, together with: ATP acyl-phosphate probe).
For `CNC(=O)c1cc(C(=O)N[C@H]2[C@@H]3COC[C@@H]32)cc2c1O[C@H](CF)[C@H]2c1ccccc1`, the viability was 100% (normal adjacent epithelium patient-derived organoids; CellTiter-Glo; mean of five organoid lines; relative to: DMSO).

A few entries again (series 3):
`E33H` gave a binding fitness of -1.4 natural log.
For `L31P`, the binding fitness was -1.49 natural log.
